{"data": "Assay results gathered from unrelated publications", "note": "A part holds a random share of what one study measured. “And” joins repeats or separate records; there may be more than shown."}
{"data": "Block 1", "host": "mouse", "matrix": "microsomes or S9", "tested at": "2 µM", "time": "0.5 h"}
{"SMILES": "CC1=CC(=O)c2ccccc2C1=O", "remaining compound": "51.6%"}
{"SMILES": "[O-][S+]1CCN(c2ncnc3sccc23)CC1", "remaining compound": "> 100%"}
{"SMILES": "COc1cc(CNCCN(C)C)c(Cl)cc1OCc1ccccc1", "remaining compound": "40%"}
{"SMILES": "Cc1cc(C)c(C2=C(NC(=O)C(C)C)C3(CCCC3)OC2=O)c(C)c1", "remaining compound": "0.006%"}
{"SMILES": "Fc1ccc(-c2ccc3ccnc(N4CCOCC4)c3c2)cc1Cl", "remaining compound": "14.3%"}
{"SMILES": "Cc1cc(C)c(CNC(C)CCC(C)C)c(C)c1CO (centres unmarked)", "remaining compound": "2.26%"}
{"SMILES": "Cc1nc2sc(C(=O)N(C)c3ccccc3)c(N)c2c(C)c1C", "remaining compound": "0.692%"}
{"SMILES": "O=C(O)c1csc(CNC(=O)c2cc(N3CCNC3=O)ccc2Cl)n1", "remaining compound": "> 100%"}
{"SMILES": "Cc1cc(Cl)cc(C(=O)c2c(C(C)C)c(=O)[nH]c(=O)n2Cc2cc(N)nc(Cl)c2)c1", "remaining compound": "19.7%"}
{"SMILES": "Cc1nc2ncc(-c3cccc(N(C)C)c3)cc2[nH]1", "remaining compound": "80.1%"}
{"SMILES": "Cc1cc(C)nc(NC(N)=Nc2ccc(CC(=O)OC(C)C)cc2)n1", "remaining compound": "84%"}
{"SMILES": "C1=Cn2nc(/C=C/c3cccs3)nc2-c2ccccc2O1", "remaining compound": "2.67%"}
{"data": "Block 2", "cell line": "normal organoid sample D", "method": "CellTiter-Glo", "host": "human", "tested at": "1 µM", "time": "4 days", "baseline": "DMSO"}
{"SMILES": "NS(=O)(=O)c1cc(NC(=O)Cc2ccccc2)ccc1Oc1cccc(Cl)c1", "viability": "108% and 85.3%"}
{"SMILES": "CN(C)c1ncnc(-c2ccc3nc(Nc4cc(CN5CCN(C(=O)CC(F)(F)F)CC5)ccn4)[nH]c3c2)c1Cl", "viability": "91% and 78.9%"}
{"SMILES": "CN(c1ccnc(CNc2nc(Nc3ccc4c(c3)CC(=O)N4)ncc2C(F)(F)F)n1)S(C)(=O)=O", "viability": "95.1% and 75.9%"}
{"SMILES": "C[C@H](c1ccnc(Nc2nc3ccc(-c4cc(N(C)C)ncn4)cc3[nH]2)c1)N1CCN(C(=O)CC(F)(F)F)CC1", "viability": "94.2% and 81.5%"}
{"SMILES": "O=C(NCc1ncc(C(F)(F)F)cc1Cl)c1ccc2c(c1)C1(CCS(=O)(=O)CC1)[C@@H](C1CC1)N2S(=O)(=O)c1ccc(F)cc1", "viability": "122% and 116%"}
{"SMILES": "C[C@H](c1ccc(F)cc1)N(Cc1ccc(Cl)c(C(=O)O)c1)C(=O)c1cnc2ccccc2c1", "viability": "110% and 115%"}
{"SMILES": "O=C(O)[C@@H]1[C@@H](Cn2nnc3ccccc3c2=O)CC[C@H]1C(=O)c1ccc(OCCC2CCOCC2)cc1", "viability": "132% and 122%"}
{"SMILES": "C[C@@]1(Cc2ccc(C#N)cc2)C(=O)N(c2cc(Cl)cc(Cl)c2)c2ncc(C(=O)NC3(c4nc(C5CCC5)no4)CC3)n21", "viability": "79.2% and 89.2%"}
{"SMILES": "CN(C)C(=O)Cn1cc(-c2nc(C3(c4ccc(-c5cnc(N)nc5)cc4)CC3)no2)cn1", "viability": "87.2% and 108%"}
{"SMILES": "CCCCN(Cc1ccccc1)C(=O)c1ccc(S(=O)(=O)Nc2ccccc2)cc1", "viability": "118% and 108%"}
{"SMILES": "NS(=O)(=O)c1cc(NC(=O)C2(c3ccccc3Cl)CC2)ccc1Oc1cccc(Cl)c1", "viability": "104% and 86.5%"}
{"SMILES": "CCCCN(CCCC)C(=O)CN1C[C@@H](c2cc(OC)c3c(c2)OCO3)[C@H](C(=O)O)[C@H]1CC(C)(C)CCC", "viability": "113% and 139%"}
{"data": "Block 3", "target": "Inhibitor of nuclear factor kappa-B kinase subunit alpha (CHUK, Homo sapiens, UniProt O15111)", "read-out": "enzyme activity", "action": "inhibitor", "tested at": "0.5 µM", "baseline": "control", "sequence of UniProt O15111 (whole entry, looked up)": "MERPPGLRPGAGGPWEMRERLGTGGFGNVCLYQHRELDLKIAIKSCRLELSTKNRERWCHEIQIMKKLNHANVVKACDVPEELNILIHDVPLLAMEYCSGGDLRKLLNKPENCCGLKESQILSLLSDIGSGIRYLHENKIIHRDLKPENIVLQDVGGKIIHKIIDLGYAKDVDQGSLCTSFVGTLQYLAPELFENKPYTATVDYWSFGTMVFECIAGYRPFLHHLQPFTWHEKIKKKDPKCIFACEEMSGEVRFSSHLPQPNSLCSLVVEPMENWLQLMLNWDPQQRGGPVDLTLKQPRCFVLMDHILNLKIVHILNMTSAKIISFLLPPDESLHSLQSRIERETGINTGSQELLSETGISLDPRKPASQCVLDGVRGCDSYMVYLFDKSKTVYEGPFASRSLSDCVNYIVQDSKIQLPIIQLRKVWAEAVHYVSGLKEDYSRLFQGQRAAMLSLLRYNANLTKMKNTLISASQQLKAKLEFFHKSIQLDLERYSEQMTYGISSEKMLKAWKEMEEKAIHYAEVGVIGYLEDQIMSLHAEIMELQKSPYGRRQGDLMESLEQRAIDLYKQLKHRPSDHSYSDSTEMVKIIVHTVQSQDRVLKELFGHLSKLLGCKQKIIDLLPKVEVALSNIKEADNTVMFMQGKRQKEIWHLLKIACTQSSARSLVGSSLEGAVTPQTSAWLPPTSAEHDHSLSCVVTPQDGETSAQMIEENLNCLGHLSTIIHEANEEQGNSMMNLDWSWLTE"}
{"Structure (SMILES)": "NC(=O)c1ccc(-c2nc(-c3ccc4c(c3)OCCO4)c(-c3ccccn3)[nH]2)cc1", "remaining activity [%]": 89.7}
{"Structure (SMILES)": "N#CC(c1ccnc(NCCc2cccnc2)n1)c1nc2ccccc2s1 (centres unmarked)", "remaining activity [%]": 88.6}
{"Structure (SMILES)": "O=C1NC(=O)/C(=C/c2ccc3c(c2)OC(F)(F)O3)S1", "remaining activity [%]": 88.4}
{"Structure (SMILES)": "CC(C)n1cnc2c(Nc3cccc(Cl)c3)nc(NCCO)nc21", "remaining activity [%]": 96.1}
{"Structure (SMILES)": "CCCCc1c(-c2ccc(O)cc2)[nH]c2nccnc12", "remaining activity [%]": 77.6}
{"Structure (SMILES)": "CNc1cc2c(Nc3cccc(Br)c3)ncnc2cn1", "remaining activity [%]": 99}
{"Structure (SMILES)": "COc1cc2c(Nc3ccc(Br)cc3F)ncnc2cc1OCC1CCN(C)CC1", "remaining activity [%]": 96.6}
{"Structure (SMILES)": "O=C1c2ccccc2-c2nc3nnnn3nc21", "remaining activity [%]": 72}
{"Structure (SMILES)": "Clc1ccc(Nc2nnc(Cc3ccncc3)c3ccccc23)cc1", "remaining activity [%]": 104}
{"Structure (SMILES)": "NC(=O)c1cccc(-c2cc(Nc3ccc(OC(F)(F)F)cc3)ncn2)c1", "remaining activity [%]": 95}
{"Structure (SMILES)": "CC(C)N(CCC(=O)c1ccc2ccccc2c1)Cc1ccccc1", "remaining activity [%]": 96.4}
{"Structure (SMILES)": "O=C(O)/C=C/c1cc(Br)c(Br)c(Br)c1Br", "remaining activity [%]": 89.5}
{"Structure (SMILES)": "O=C(c1ccccc1)c1ccc(N2CCOCC2)cc1O", "remaining activity [%]": 101}
{"Structure (SMILES)": "O=c1c(-c2ccc(F)cc2)c(-c2ccncc2)[nH]n1-c1ccc(Cl)cc1", "remaining activity [%]": 101}
{"Structure (SMILES)": "c1cc(-c2cnn3cc(-c4ccc(OCCN5CCCCC5)cc4)cnc23)ccn1", "remaining activity [%]": 104}
{"Structure (SMILES)": "O=Nc1c(-c2c(O)[nH]c3ccccc23)[nH]c2ccccc12", "remaining activity [%]": 97.6}
{"Structure (SMILES)": "COc1cc2c(N3CCN(C(=O)Nc4ccc(OC(C)C)cc4)CC3)ncnc2cc1OCCCN1CCCCC1", "remaining activity [%]": 98.3}
{"Structure (SMILES)": "Nc1nc(Nc2ccc(S(N)(=O)=O)cc2)nn1C(=S)Nc1c(F)cccc1F", "remaining activity [%]": 54.4}
{"Structure (SMILES)": "C[C@@H](N)[C@H]1CC[C@H](C(=O)Nc2ccncc2)CC1", "remaining activity [%]": 92.2}
{"Structure (SMILES)": "CCN(CC)CCCCN1c2ccccc2Oc2ccc(Cl)cc21", "remaining activity [%]": 98.8}
{"Structure (SMILES)": "FC(F)(F)c1ccc(/C=C/c2nc(COc3ccc(CCCCn4ccnn4)cc3)co2)cc1", "remaining activity [%]": 96.8}
{"Structure (SMILES)": "N#C/C(=C(/N)SC1C=CC=CC1)c1cccc(C(O)c2ccncc2)c1 (centres unmarked)", "remaining activity [%]": 105}
{"Structure (SMILES)": "CC(C)(C)c1nc2c3cc[nH]c(=O)c3c3cc(F)ccc3c2[nH]1", "remaining activity [%]": 102}
{"data": "Block 4", "cell line": "mouse MPNST tumor cells", "method": "high-content immunofluorescence imaging", "refers to": "nuclear SOX9", "tested at": "10 µM", "time": "12 h", "setting": "mean of 2 replicates", "baseline": "DMSO control", "direction": "higher = more nuclear SOX9"}
{"SMILES": "Cc1cc(O)c(C(=O)N[C@@H](C(=O)N[C@@H]2C(=O)N3C(C(=O)O)=C(CSc4nnnn4C)CS[C@H]23)c2ccc(O)cc2)cn1", "nuclear SOX9 intensity": "90.3 % of DMSO"}
{"SMILES": "Clc1cccc(COc2cncc(N3CCNCC3)n2)c1", "nuclear SOX9 intensity": "153 % of DMSO"}
{"SMILES": "Clc1ccc(CSC(Cn2ccnc2)c2ccc(Cl)cc2Cl)cc1 (centres unmarked)", "nuclear SOX9 intensity": "116 % of DMSO"}
{"SMILES": "COc1cccc([C@@H](C)NCCCc2ccccc2Cl)c1", "nuclear SOX9 intensity": "174 % of DMSO"}
{"SMILES": "CC(=O)N1CCN(C(=O)/C=C/c2ccc(Sc3ccccc3C(C)C)c([N+](=O)[O-])c2)CC1", "nuclear SOX9 intensity": "122 % of DMSO"}
{"SMILES": "COc1ccccc1C(=O)Nc1cc2c(cc1N1CCNC[C@H]1C)n(C)c(=O)n2C", "nuclear SOX9 intensity": "129 % of DMSO and 151 % of DMSO"}
{"SMILES": "O=C(O)c1c[nH]c2cc(Cl)c(-c3ccc(C4(O)CCC4)cc3)cc12", "nuclear SOX9 intensity": "107 % of DMSO"}
{"SMILES": "Cc1ccnc(NS(=O)(=O)c2ccc(N)cc2)n1", "nuclear SOX9 intensity": "67.7 % of DMSO"}
{"SMILES": "COC(=O)C1=C(C)NC(C)=C(C(=O)OCCCN2CCC(c3ccccc3)(c3ccccc3)CC2)[C@H]1c1cccc([N+](=O)[O-])c1", "nuclear SOX9 intensity": "126 % of DMSO"}
{"SMILES": "COc1ccnc(C[S+]([O-])c2nc3cc(OC(F)F)ccc3[nH]2)c1OC (centres unmarked)", "nuclear SOX9 intensity": "94.7 % of DMSO"}
{"SMILES": "CC(CN1c2ccccc2Sc2ccccc21)N(C)C (centres unmarked)", "nuclear SOX9 intensity": "123 % of DMSO"}
{"SMILES": "COc1cc(NC(=O)c2ccccn2)ccc1Cl", "nuclear SOX9 intensity": "102 % of DMSO"}
{"note": "Excerpt of the above (block 3):"}
{"Structure (SMILES)": "N#CC(c1ccnc(NCCc2cccnc2)n1)c1nc2ccccc2s1 (centres unmarked)", "remaining activity [%]": 88.6}
{"Structure (SMILES)": "CC(C)(C)c1nc2c3cc[nH]c(=O)c3c3cc(F)ccc3c2[nH]1", "remaining activity [%]": 102}
{"Structure (SMILES)": "O=c1c(-c2ccc(F)cc2)c(-c2ccncc2)[nH]n1-c1ccc(Cl)cc1", "remaining activity [%]": 101}
{"Structure (SMILES)": "COc1cc2c(Nc3ccc(Br)cc3F)ncnc2cc1OCC1CCN(C)CC1", "remaining activity [%]": 96.6}
{"Structure (SMILES)": "COc1cc2c(N3CCN(C(=O)Nc4ccc(OC(C)C)cc4)CC3)ncnc2cc1OCCCN1CCCCC1", "remaining activity [%]": 98.3}
